Earlier results, collected from citations in different studies.
Protocols differ between the studies behind these lines. ± gives the spread as reported. Values after ≈ are worked out from the molar mass of the structure shown.
UniProt Q9BYP7, sequence (whole entry, looked up): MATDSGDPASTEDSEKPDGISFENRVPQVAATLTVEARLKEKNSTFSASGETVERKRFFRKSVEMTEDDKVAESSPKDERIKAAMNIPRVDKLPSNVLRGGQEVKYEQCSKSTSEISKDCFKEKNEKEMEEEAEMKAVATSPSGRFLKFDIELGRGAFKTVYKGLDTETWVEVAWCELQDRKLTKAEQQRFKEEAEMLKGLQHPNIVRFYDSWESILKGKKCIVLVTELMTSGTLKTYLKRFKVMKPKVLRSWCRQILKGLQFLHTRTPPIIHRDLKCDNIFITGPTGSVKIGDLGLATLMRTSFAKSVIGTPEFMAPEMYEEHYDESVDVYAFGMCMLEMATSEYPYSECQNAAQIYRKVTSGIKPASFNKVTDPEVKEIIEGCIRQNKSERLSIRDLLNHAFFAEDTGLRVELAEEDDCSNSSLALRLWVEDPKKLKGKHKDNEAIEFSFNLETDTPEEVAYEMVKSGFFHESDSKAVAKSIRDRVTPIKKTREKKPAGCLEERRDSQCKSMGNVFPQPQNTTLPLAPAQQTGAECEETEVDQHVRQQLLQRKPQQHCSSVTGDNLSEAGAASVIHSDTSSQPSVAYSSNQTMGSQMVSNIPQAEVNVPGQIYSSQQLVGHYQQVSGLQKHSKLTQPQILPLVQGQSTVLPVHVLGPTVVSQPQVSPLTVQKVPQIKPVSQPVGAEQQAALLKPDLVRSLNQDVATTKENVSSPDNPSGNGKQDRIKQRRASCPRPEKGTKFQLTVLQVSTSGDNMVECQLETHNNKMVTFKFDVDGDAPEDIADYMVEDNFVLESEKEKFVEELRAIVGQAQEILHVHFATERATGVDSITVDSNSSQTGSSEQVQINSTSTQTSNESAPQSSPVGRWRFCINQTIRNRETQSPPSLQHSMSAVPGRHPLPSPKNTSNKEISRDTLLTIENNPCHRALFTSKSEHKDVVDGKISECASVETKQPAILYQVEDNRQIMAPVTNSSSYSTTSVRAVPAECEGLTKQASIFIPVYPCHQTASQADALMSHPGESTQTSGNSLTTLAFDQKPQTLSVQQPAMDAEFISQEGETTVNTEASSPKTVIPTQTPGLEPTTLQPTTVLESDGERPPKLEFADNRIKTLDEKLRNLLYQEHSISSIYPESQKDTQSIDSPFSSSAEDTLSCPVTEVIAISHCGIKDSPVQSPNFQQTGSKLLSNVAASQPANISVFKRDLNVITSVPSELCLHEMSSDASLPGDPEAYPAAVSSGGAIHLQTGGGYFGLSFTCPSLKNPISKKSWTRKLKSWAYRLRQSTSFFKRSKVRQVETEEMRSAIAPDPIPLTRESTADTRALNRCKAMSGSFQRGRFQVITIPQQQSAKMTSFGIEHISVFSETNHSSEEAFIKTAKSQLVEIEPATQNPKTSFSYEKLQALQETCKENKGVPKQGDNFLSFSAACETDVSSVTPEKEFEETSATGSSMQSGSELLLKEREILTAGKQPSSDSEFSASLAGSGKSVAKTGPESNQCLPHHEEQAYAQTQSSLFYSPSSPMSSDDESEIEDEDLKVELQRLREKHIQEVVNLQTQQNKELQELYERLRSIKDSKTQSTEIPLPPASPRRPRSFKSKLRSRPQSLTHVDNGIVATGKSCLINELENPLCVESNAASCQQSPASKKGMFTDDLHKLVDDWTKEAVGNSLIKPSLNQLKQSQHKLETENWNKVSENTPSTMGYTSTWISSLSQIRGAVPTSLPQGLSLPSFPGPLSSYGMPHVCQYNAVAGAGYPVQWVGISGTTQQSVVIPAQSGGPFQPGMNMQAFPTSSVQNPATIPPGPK

| SMILES | tested on | test | test system | conditions | scale | measurement | value |
| --- | --- | --- | --- | --- | --- | --- | --- |
| CNC(=O)c1c(C)oc2cc(Oc3ncnc4cc(OC)c(OC)cc34)ccc12 |  |  | human | oral, dose not given |  | Tmax | ~2 h |
| CCN1CCN(Cc2ccc(Nc3ncc(F)c(-c4cc(F)c5nc(C)n(C(C)C)c5c4)n3)nc2)CC1 |  |  | human | range over 50 to 275 mg |  | Tmax | 4 to 6 h |
| CCN1CCN(Cc2ccc(Nc3ncc(F)c(-c4cc(F)c5nc(C)n(C(C)C)c5c4)n3)nc2)CC1 |  |  | human | 200 mg twice daily, multiple dose, tablet |  | Tmax | 3.95 h |
| C[C@H](Cn1cnc2c(N)ncnc21)OCP(=O)(O)O |  |  | human, plasma | oral, 300 mg tenofovir disoproxil fumarate, single dose |  | Tmax | 0.5 h |
| Cc1cc2c(s1)Nc1ccccc1N=C2N1CCN(C)CC1 |  |  | human | oral, 10 mg, day 1 |  | Tmax | 5 h |
| CNC(C)C1CCC(N)C(OC2C(N)CC(N)C(OC3OCC(C)(O)C(NC)C3O)C2O)O1 (stereo not drawn) | Enterobacter cloacae |  | clinical isolate RKI-No_466/13 |  |  | MIC | 4 µg/mL (≈ 8.38 µM) |
| Cc1cc(C)c(CNC(=O)c2cc(Cl)c3c(c2C)O[C@@](C)([C@H]2CC[C@H](N(C)C)CC2)O3)c(=O)[nH]1 |  |  | human | oral, 200 mg single dose, median |  | Tmax | 4.5 h |
| Cc1ccccc1CN1C(=O)C2=C(CCN(Cc3ccccc3)C2)N2CCN=C12 |  |  | human | oral, 625 mg, fasted, single dose, without rabeprazole |  | Tmax | 1 h |
| COCCc1ccc(OCC(O)CNC(C)C)cc1 (stereo not drawn) |  |  | human fasted | 400 mg single dose, mean |  | Tmax | 13.5 h |
| O=C(c1cc(Cc2n[nH]c(=O)c3ccccc23)ccc1F)N1CCN(C(=O)C2CC2)CC1 |  |  | human | oral tablet, 200 mg twice daily, multiple dose |  | Tmax | 1.5 h |
| O=C(O)[C@H]1O[C@@H](Oc2ccc([C@@H]3[C@@H](CC[C@H](O)c4ccc(F)cc4)C(=O)N3c3ccc(F)cc3)cc2)[C@H](O)[C@@H](O)[C@@H]1O |  |  | human | dose not given, added: rifampin 18 |  | Tmax | ~3 h |
| C=CC(=O)Nc1cc(Nc2nccc(-c3cn(C)c4ccccc34)n2)c(OCC(F)(F)F)nc1N(C)CCN(C)C |  | item: total radioactivity | human | oral |  | Tmax | 0.5 h |
| Cc1cccc(F)c1N1CCC(N2Cc3cn(CC(C)(F)F)nc3N(Cc3ccccc3C(F)(F)F)C2=O)CC1 |  |  | human, fed |  |  | Tmax | 3 h |
| CC1(C)S[C@@H]2[C@H](NC(=O)[C@H](N)c3ccccc3)C(=O)N2[C@H]1C(=O)O | Enterobacter cloacae |  | clinical isolate RKI-No_506/15 |  |  | MIC | > 16 µg/mL |
| COc1cc2c(Oc3ccc4[nH]c(C)cc4c3F)ccnc2cc1OCC1(N)CC1 |  |  | human | 10 mg single dose |  | Tmax | 6 ± 4.4 h |
| Nc1cc(C(F)(F)F)c(-c2nc(N3CCOCC3)nc(N3CCOCC3)n2)cn1 | Serine/threonine-protein kinase WNK3 (WNK3, Homo sapiens, UniProt Q9BYP7) | enzyme activity |  | 10 µM | reference: untreated | remaining activity | 100% |
| CC(C)[C@H](C(=O)Nc1ccc(C(=O)NO)cc1)c1ccccc1 |  |  | human | oral, 20 mg |  | Tmax | 4 h |
| CNCc1cc(-c2ccccc2F)n(S(=O)(=O)c2cccnc2)c1 |  |  | human, plasma | 30 mg single dose, observed clinical data |  | Tmax | 1.5 h |
| C[C@H]1CO[C@@H]2Cn3cc(C(=O)NCc4ccc(F)cc4F)c(=O)c(O)c3C(=O)N12 |  |  | human | oral tablet, median fed |  | Tmax | 4 h |
| Cc1[nH]c2ccccc2c1CCNCc1ccc(/C=C/C(=O)NO)cc1 |  |  | human | oral, dose not given |  | Tmax | 1 to 1.5 h |
| CC(C)(O)CNc1nc(Nc2ccnc(C(F)(F)F)c2)nc(-c2cccc(C(F)(F)F)n2)n1 |  |  | human | 100 mg |  | Tmax | 4 h |

For quick reference, copied from above:
| SMILES | tested on | test | test system | conditions | scale | measurement | value |
| --- | --- | --- | --- | --- | --- | --- | --- |
| CNC(C)C1CCC(N)C(OC2C(N)CC(N)C(OC3OCC(C)(O)C(NC)C3O)C2O)O1 (stereo not drawn) | Enterobacter cloacae |  | clinical isolate RKI-No_466/13 |  |  | MIC | 4 µg/mL (≈ 8.38 µM) |
| Cc1cc(C)c(CNC(=O)c2cc(Cl)c3c(c2C)O[C@@](C)([C@H]2CC[C@H](N(C)C)CC2)O3)c(=O)[nH]1 |  |  | human | oral, 200 mg single dose, median |  | Tmax | 4.5 h |
| Cc1ccccc1CN1C(=O)C2=C(CCN(Cc3ccccc3)C2)N2CCN=C12 |  |  | human | oral, 625 mg, fasted, single dose, without rabeprazole |  | Tmax | 1 h |
